Assay results of several laboratories.
Compare with care: the assays were run in different laboratories.
Organism: Staphylococcus aureus

| SMILES | test | test system | setting | MIC |
| --- | --- | --- | --- | --- |
| CN[C@H](CC(C)C)C(=O)N[C@H]1C(=O)N[C@@H](CC(N)=O)C(=O)N[C@H]2C(=O)N[C@H]3C(=O)N[C@H](C(=O)N[C@H](C(=O)NCc4cn(CC(=O)N[C@H](C(=O)N[C@@H](CCN)C(=O)N[C@H]5CCNC(=O)[C@H]([C@@H](C)O)NC(=O)[C@H](CCN)NC(=O)[C@H](CCN)NC(=O)[C@H](CC(C)C)NC(=O)[C@@H](CC(C)C)NC(=O)[C@H](CCN)NC5=O)[C@@H](C)O)nn4)c4cc(O)cc(O)c4-c4cc3ccc4O)[C@H](O)c3ccc(c(Cl)c3)Oc3cc2cc(c3O[C@@H]2O[C@H](CO)[C@@H](O)[C@H](O)[C@H]2O[C@H]2C[C@](C)(N)[C@H](O)[C@H](C)O2)Oc2ccc(cc2Cl)[C@H]1O |  | VRSA 2 vanA |  | 13 µM |
| CC[C@H](C)[C@H](NC(=O)[C@@H](CCCNC(=N)N)NC(=O)[C@H](CCCNC(=N)N)NC(=O)[C@@H]1CCCN1C(=O)[C@@H]1CCCN1C(=O)[C@H](CCCNC(=N)N)NC(=O)[C@H](Cc1c[nH]c2ccccc12)NC(=O)[C@H](CCCNC(=N)N)NC(=O)[C@@H]1CCCN1C(=O)[C@H](CC(C)C)NC(=O)[C@H](Cc1ccc(O)cc1)NC(=O)[C@@H]1CCCN1C(=O)[C@@H]1CCCN1C(=O)[C@H](CCCCN)NC(=O)[C@H](CC(=O)O)NC(=O)[C@@H](N)C(C)C)C(=O)N[C@@H](Cc1ccc(O)cc1)C(=O)N[C@@H](CC(N)=O)C(=O)N[C@H](CCCNC(=N)N)C(N)=O | broth microdilution | DSM 6247 | 18 h, 37 °C, 25% MHB2 | 128 µg/mL |
| CC[C@H](C)[C@@H]1NC(=O)[C@H](C(C)C)NC(=O)[C@H](C(C)C)NC(=O)[C@H](CC(C)C)NC(=O)C[C@@H](C(=O)N[C@@H](Cc2c[nH]c3ccccc23)C(=O)N[C@@H](CC(N)=O)C(=O)N[C@@H](C)C(=O)N2CCC[C@H]2C(=O)NCC(=O)N[C@@H](Cc2c[nH]c3ccccc23)C(=O)N[C@@H](Cc2ccccc2)C(=O)O)NC(=O)[C@H](C)NC(=O)[C@H](CCC(N)=O)NC(=O)[C@H](C(C)C)NC1=O |  | ATCC 29213 |  | > 32 µg/mL |
| COc1cccc(OC)c1C(=O)N[C@@H]1C(=O)N2[C@@H]1SC(C)(C)[C@@H]2C(=O)O |  | clinical isolate | 18 to 20 h, 37 °C | > 128 µM |
| CN[C@H](CC(C)C)C(=O)N[C@H]1C(=O)N[C@@H](CC(N)=O)C(=O)N[C@H]2C(=O)N[C@H]3C(=O)N[C@H](C(=O)N[C@H](C(=O)N[C@@H](CCCNC(=N)N)C(N)=O)c4cc(O)cc(O)c4-c4cc3ccc4O)[C@H](O)c3ccc(c(Cl)c3)Oc3cc2cc(c3O[C@@H]2O[C@H](CO)[C@@H](O)[C@H](O)[C@H]2O[C@H]2C[C@](C)(NCc3ccc(OCc4cn(CC(=O)N[C@H](C(=O)N[C@@H](CCN)C(=O)N[C@H]5CCNC(=O)[C@H]([C@@H](C)O)NC(=O)[C@H](CCN)NC(=O)[C@H](CCN)NC(=O)[C@H](CC(C)C)NC(=O)[C@@H](CC(C)C)NC(=O)[C@H](CCN)NC5=O)[C@@H](C)O)nn4)c(OC)c3)[C@H](O)[C@H](C)O2)Oc2ccc(cc2Cl)[C@H]1O |  | MRSA USA300 |  | 0.358 µM |
| CC(C)C[C@@H](NC(=O)[C@@H](CCCNC(=N)N)NC(=O)[C@H](N)CCCNC(=N)N)C(=O)N[C@H](CC(C)C)C(=O)N[C@H](CCCNC(=N)N)C(=O)N[C@H](CCCCN)C(=O)N[C@H](CC(C)C)C(=O)N[C@H](CCCCN)C(=O)NCC(=O)N[C@H](CCCCN)C(=O)N[C@H](CCCCN)C(=O)N[C@H](CC(C)C)C(=O)N[C@H](Cc1ccc(O)cc1)C(=O)N[C@H](CC(C)C)C(=O)N[C@H](Cc1ccc(O)cc1)C(=O)N[C@H](Cc1ccccc1)C(=O)N[C@H](CCCCN)C(=O)N[C@H](CC(C)C)C(=O)N[C@H](CCC(N)=O)C(=O)N[C@H](CC(C)C)C(=O)N[C@H](CC(C)C)C(=O)N[C@H](CCCCN)C(=O)N[C@H](CCCCN)C(N)=O | broth microdilution | KCTC 1621, Mueller-Hinton broth | with: FeCl3 4 µM | 16 µM |
| Cc1ccc2[nH]c3c(c2c1)CCCC3NCCc1ccc(Br)cc1 (stereo not shown) | broth microdilution | USA300 JE2 MRSA |  | 4 µg/mL |
| CC(C)[C@H](NC(=O)CNC(=O)CNC(=O)[C@H](Cc1ccc(O)cc1)NC(=O)[C@H](CS)NC(=O)[C@@H](NC(=O)[C@H](Cc1c[nH]c2ccccc12)NC(=O)[C@H](Cc1ccccc1)NC(=O)[C@H](CS)NC(=O)[C@H](Cc1c[nH]c2ccccc12)NC(=O)[C@@H](N)CCCNC(=N)N)C(C)C)C(=O)N[C@@H](CS)C(=O)N[C@@H](Cc1ccc(O)cc1)C(=O)N[C@@H](CCCNC(=N)N)C(=O)N[C@@H](CCCNC(=N)N)C(=O)N[C@@H](CS)C(=O)N[C@@H](CCCNC(=N)N)C(=O)O | broth microdilution | ATCC 25923, Mueller-Hinton broth | 16 to 20 h, 37 °C | 1.1 µg/mL |
| CC[C@H](C)[C@H](NC(=O)[C@@H](CCCNC(=N)N)NC(=O)[C@H](CCCNC(=N)N)NC(=O)[C@H](Cc1c[nH]cn1)NC(=O)[C@H](Cc1c[nH]c2ccccc12)NC(=O)[C@H](CCCNC(=N)N)NC(=O)[C@@H]1CCCN1C(=O)[C@H](CCCNC(=N)N)NC(=O)[C@@H]1CCCN1C(=O)[C@H](CC(C)C)NC(=O)[C@H](Cc1ccc(O)cc1)NC(=O)[C@@H]1CCCN1C(=O)[C@@H]1CCCN1C(=O)[C@H](CCCCN)NC(=O)[C@H](CC(=O)O)NC(=O)[C@@H](N)C(C)C)C(=O)N[C@@H](Cc1ccc(O)cc1)C(=O)N[C@@H](CC(N)=O)C(=O)N[C@H](CCCNC(=N)N)C(N)=O | broth microdilution | DSM 6247 | 18 h, 37 °C, 25% MHB2 | 64 µg/mL |
| CC(C)C[C@H](NC(=O)[C@H](CCCCN)NC(=O)[C@H](CC(C)C)NC(=O)[C@H](CCCCN)NC(=O)C1CCCC=CCCC(NC(=O)[C@H](CCCCN)NC(=O)[C@H](CC(C)C)NC(=O)[C@H](CCCCN)NC(=O)[C@@H](N)CC(C)C)C(=O)N[C@@H](CCCCN)C(=O)N2CCC[C@@H]2C(=O)NCC(=O)N[C@@H](CCCCN)C(=O)N1)C(N)=O (stereo partly shown) | broth microdilution | ATCC 29737, Mueller-Hinton broth | 18 h, 37 °C | 64 µM |
| Oc1c(Br)cc(Br)c2nc3cc(Cl)ccc3nc12 | broth microdilution | MRSA BAA-44 |  | 0.08 µM |
| CC(C)C[C@@H]1NC(=O)[C@@H](CC(C)C)NC(=O)[C@H](CCN)NC(=O)[C@@H](NC(=O)[C@H](CCN)NC(=O)[C@@H](NC(=O)CN=[N+]=[N-])[C@@H](C)O)CCNC(=O)[C@H]([C@@H](C)O)NC(=O)[C@H](CCN)NC(=O)[C@H](CCN)NC1=O | broth microdilution | MSSA ATCC 29213, cation-adjusted Mueller-Hinton broth | 20 to 24 h, 37 °C, 0.002% polysorbate 80 | > 16 µg/mL |
| CC[C@H](C)[C@H](NC(=O)[C@H](C)NC(=O)[C@@H](NC(=O)[C@H](CC(=O)O)NC(=O)[C@H](CCCCN)NC(=O)[C@H](CO)NC(=O)[C@@H](NC(=O)[C@H](CC(N)=O)NC(=O)[C@H](C)NC(=O)[C@@H](NC(=O)[C@H](CCC(=O)O)NC(=O)[C@H](CCCCN)NC(=O)[C@@H](NC(=O)[C@@H](NC(=O)[C@H](Cc1c[nH]cn1)NC(=O)[C@H](CCCCN)NC(=O)[C@@H](NC(=O)[C@H](CCCCN)NC(=O)[C@H](CCCCN)NC(=O)[C@@H](NC(=O)[C@H](CC(C)C)NC(=O)[C@H](CCCCN)NC(=O)[C@H](CC(N)=O)NC(=O)[C@H](Cc1ccccc1)NC(=O)[C@H](CCCNC(=N)N)NC(=O)[C@H](CCCCN)NC(=O)[C@H](CCCNC(=N)N)NC(=O)[C@H](Cc1ccccc1)NC(=O)CN)C(C)C)C(C)C)[C@@H](C)O)[C@@H](C)CC)[C@@H](C)O)C(C)C)C(C)C)C(=O)N[C@H](C(=O)N[C@@H](C)C(=O)NCC(=O)N[C@@H](CO)C(=O)NCC(=O)N[C@H](C(=O)N[C@@H](C)C(=O)N[C@H](C(=O)NCC(=O)N[C@@H](C)C(=O)N[C@@H](C)C(=O)N[C@@H](CCSC)C(N)=O)C(C)C)C(C)C)C(C)C | broth microdilution | ATCC 25923, CAMHB |  | > 1020 µg/mL |
| CC1CCN(C(=O)c2cccc(NC(=O)Nc3ccccc3)c2)CC1 | checkerboard, measured: ceftobiprole | CRB, PBP4 overexpressor | 25 µM | > 64 µg/mL |
| C=C1NC(=O)C2C[S+]([O-])CC3NC(=O)C(CSC(C)C(NC(=S)C(Cc4cnc[nH]4)NC(=O)c4csc(C(C)NC(C)=O)n4)C(=O)N[C@H](CC(C)C(=O)NC(=O)CC(C(=O)O)NC(=O)C(C)NC3=O)C(=O)N2)NC(=O)[C@@H]2CCCN2C(=O)[C@@H](CC(C)C)NC1=O (stereo partly shown) | bacterial growth | NCTC 8325 |  | > 32 µg/mL |
| CC[C@H](C)[C@@H]1NC(=O)[C@H](CO)NC(=O)[C@H](CCCCN)NC(=O)[C@@H]2CSSC[C@@H](C(=O)N[C@@H](Cc3ccc(O)cc3)C(N)=O)NC(=O)[C@H](CCCCN)NC(=O)[C@@H]3CSSC[C@H](NC(=O)[C@H](CCCNC(=N)N)NC(=O)[C@H](CC(C)C)NC(=O)[C@H](CC(=O)O)NC(=O)[C@H](CC(=O)O)NC(=O)[C@H](CCC(=O)O)NC(=O)[C@H](CC(N)=O)NC(=O)[C@H](Cc4c[nH]c5ccccc45)NC(=O)C(C)(CC)NC(=O)CNC(=O)[C@H](CC(N)=O)NC(=O)[C@@H](NC(=O)CNC(=O)[C@H](Cc4ccccc4)NC(=O)CN)CSSC[C@H](NC(=O)[C@H](Cc4ccc(O)cc4)NC(=O)CNC(=O)CNC(=O)[C@H](CCCCN)NC(=O)[C@H](Cc4ccc(O)cc4)NC(=O)[C@H]4CCCN4C(=O)[C@@H]4CCCN4C1=O)C(=O)N[C@@H](C)C(=O)N[C@@H](CCCCN)C(=O)N1CCC[C@@H]1C(=O)NCC(=O)N[C@@H](Cc1ccccc1)C(=O)N[C@@H](C(C)C)C(=O)N3)C(=O)N[C@@H](Cc1c[nH]cn1)C(=O)N[C@@H](CC(N)=O)C(=O)N[C@@H](Cc1c[nH]cn1)C(=O)N2 (stereo partly shown) |  | 467, methicillin-resistant mecA, cation-adjusted Mueller Hinton broth | 18 h, 37 °C | 8 µM |
| CN[C@H](CC(C)C)C(=O)N[C@H]1C(=O)N[C@@H](CC(N)=O)C(=O)N[C@H]2C(=O)N[C@H]3C(=O)N[C@H](C(=O)N[C@H](C(=O)NCc4cn(CCCCC(=O)N[C@H](C(=O)N[C@@H](CCN)C(=O)N[C@H]5CCNC(=O)[C@H]([C@@H](C)O)NC(=O)[C@H](CCN)NC(=O)[C@H](CCN)NC(=O)[C@H](CC(C)C)NC(=O)[C@@H](CC(C)C)NC(=O)[C@H](CCN)NC5=O)[C@@H](C)O)nn4)c4cc(O)cc(O)c4-c4cc3ccc4O)[C@H](O)c3ccc(c(Cl)c3)Oc3cc2cc(c3O[C@@H]2O[C@H](CO)[C@@H](O)[C@H](O)[C@H]2O[C@H]2C[C@](C)(N)[C@H](O)[C@H](C)O2)Oc2ccc(cc2Cl)[C@H]1O | broth microdilution | VISA NRS402, tryptic soy broth | 20 to 24 h, 37 °C, 0.002% polysorbate 80 | 8 µg/mL |
| CC(C)CCCCCCCCC/C=C/C(=O)N[C@@H](CC(N)=O)C(=O)N[C@H]1CNC(=O)[C@@H]2CCCN2C(=O)[C@H](C(C)C)NC(=O)[C@@H](CN)NC(=O)CNC(=O)[C@H](CC(=O)O)NC(=O)CNC(=O)[C@H](CC(=O)O)NC(=O)[C@H](CC(=O)O)NC(=O)[C@H]2CCCCN2C1=O | broth microdilution | MRSA USA300, Mueller-Hinton broth, Mg2+ 10 mg/L | 16 h, 37 °C, with: Ca2+ 5 mM | 4 µg/mL |
| COc1ccc2ccc(O)c(/C=N/[C@H]3CCCC[C@H]3/N=C/c3ccc(F)cc3O)c2c1 | bacterial growth, broth microdilution | vancomycin-intermediate |  | > 40 µM |
